Results pooled from the literature.
Protocols differ between the studies behind these lines. Several values in a cell are separate wells, animals, samples, runs or records. ± marks the error that the study gave.
Sequence of UniProt Q16774 (whole entry, unmodified, looked up): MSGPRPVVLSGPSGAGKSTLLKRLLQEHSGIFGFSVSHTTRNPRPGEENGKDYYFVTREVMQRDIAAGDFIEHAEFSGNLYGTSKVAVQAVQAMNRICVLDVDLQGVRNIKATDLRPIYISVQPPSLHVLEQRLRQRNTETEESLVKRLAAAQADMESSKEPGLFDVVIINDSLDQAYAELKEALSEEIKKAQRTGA
Sequence of UniProt P51575 (whole entry, unmodified, looked up): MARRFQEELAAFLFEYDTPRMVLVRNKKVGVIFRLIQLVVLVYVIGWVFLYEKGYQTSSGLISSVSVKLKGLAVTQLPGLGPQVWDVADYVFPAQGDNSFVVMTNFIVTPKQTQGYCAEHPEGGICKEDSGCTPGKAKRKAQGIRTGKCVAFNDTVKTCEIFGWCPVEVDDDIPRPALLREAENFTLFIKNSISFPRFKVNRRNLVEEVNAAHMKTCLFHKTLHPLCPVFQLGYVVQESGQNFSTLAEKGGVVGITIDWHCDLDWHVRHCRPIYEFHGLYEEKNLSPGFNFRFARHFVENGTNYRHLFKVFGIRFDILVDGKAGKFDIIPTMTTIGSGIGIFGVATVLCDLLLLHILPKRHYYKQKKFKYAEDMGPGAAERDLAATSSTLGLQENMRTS
Sequence of UniProt P00519 (whole entry, unmodified, looked up): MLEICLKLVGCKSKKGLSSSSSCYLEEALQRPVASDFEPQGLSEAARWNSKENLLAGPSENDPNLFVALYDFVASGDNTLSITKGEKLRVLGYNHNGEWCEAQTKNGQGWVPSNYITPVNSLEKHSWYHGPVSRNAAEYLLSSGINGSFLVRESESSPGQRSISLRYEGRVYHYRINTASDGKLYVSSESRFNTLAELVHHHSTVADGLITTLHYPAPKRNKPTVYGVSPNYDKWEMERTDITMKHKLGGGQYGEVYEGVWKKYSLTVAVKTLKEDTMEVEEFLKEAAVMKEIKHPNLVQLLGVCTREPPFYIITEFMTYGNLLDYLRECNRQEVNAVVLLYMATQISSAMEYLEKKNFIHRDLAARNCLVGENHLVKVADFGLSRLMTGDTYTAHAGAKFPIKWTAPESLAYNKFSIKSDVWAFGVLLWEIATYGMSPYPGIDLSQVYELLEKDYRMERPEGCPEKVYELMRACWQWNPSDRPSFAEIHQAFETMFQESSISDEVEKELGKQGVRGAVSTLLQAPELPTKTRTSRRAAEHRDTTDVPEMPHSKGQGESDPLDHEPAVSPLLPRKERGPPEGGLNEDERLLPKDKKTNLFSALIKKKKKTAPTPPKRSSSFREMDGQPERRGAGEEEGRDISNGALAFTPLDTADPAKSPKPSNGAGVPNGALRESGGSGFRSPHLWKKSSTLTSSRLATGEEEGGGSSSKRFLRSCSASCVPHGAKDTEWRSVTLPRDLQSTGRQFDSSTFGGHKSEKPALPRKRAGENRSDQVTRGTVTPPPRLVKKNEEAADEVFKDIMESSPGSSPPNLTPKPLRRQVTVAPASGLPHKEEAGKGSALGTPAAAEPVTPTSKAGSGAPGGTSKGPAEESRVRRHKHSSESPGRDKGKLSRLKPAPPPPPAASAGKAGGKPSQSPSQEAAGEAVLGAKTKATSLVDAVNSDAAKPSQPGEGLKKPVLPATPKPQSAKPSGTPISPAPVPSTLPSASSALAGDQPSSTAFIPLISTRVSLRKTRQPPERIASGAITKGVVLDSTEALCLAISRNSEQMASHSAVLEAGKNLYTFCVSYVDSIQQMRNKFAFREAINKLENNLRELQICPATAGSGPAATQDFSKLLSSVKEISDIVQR
Sequence of UniProt P54292 (whole entry, looked up): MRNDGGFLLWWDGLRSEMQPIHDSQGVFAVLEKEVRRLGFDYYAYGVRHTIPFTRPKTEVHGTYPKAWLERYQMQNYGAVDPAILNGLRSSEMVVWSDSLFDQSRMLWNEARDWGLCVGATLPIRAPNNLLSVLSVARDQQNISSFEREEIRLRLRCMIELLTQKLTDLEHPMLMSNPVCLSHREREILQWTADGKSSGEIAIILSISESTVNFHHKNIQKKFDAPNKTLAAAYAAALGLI
Sequence of UniProt Q92995 (whole entry, looked up): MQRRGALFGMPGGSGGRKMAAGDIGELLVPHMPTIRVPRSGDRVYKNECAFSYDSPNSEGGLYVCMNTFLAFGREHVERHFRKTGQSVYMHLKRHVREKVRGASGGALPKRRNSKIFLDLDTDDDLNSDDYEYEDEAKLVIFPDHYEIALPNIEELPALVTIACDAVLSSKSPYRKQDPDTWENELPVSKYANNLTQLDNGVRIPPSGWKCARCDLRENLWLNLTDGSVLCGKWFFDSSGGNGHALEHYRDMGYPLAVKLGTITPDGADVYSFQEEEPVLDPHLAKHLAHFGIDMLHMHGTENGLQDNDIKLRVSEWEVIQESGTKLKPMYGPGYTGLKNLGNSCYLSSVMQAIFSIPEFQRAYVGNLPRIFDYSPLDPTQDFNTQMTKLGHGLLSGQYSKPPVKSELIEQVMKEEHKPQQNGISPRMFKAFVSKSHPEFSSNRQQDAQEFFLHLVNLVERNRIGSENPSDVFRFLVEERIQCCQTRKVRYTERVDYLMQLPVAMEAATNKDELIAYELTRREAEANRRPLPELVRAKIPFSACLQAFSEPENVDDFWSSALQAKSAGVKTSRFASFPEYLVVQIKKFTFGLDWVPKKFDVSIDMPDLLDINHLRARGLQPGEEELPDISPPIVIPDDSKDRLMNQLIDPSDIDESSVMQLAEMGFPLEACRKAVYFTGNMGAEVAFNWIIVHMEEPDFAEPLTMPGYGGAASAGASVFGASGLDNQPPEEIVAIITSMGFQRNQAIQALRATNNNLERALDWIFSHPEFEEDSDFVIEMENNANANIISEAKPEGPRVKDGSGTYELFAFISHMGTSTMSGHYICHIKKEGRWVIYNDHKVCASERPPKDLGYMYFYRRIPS
Sequence of UniProt Q9UBN7 (whole entry, looked up): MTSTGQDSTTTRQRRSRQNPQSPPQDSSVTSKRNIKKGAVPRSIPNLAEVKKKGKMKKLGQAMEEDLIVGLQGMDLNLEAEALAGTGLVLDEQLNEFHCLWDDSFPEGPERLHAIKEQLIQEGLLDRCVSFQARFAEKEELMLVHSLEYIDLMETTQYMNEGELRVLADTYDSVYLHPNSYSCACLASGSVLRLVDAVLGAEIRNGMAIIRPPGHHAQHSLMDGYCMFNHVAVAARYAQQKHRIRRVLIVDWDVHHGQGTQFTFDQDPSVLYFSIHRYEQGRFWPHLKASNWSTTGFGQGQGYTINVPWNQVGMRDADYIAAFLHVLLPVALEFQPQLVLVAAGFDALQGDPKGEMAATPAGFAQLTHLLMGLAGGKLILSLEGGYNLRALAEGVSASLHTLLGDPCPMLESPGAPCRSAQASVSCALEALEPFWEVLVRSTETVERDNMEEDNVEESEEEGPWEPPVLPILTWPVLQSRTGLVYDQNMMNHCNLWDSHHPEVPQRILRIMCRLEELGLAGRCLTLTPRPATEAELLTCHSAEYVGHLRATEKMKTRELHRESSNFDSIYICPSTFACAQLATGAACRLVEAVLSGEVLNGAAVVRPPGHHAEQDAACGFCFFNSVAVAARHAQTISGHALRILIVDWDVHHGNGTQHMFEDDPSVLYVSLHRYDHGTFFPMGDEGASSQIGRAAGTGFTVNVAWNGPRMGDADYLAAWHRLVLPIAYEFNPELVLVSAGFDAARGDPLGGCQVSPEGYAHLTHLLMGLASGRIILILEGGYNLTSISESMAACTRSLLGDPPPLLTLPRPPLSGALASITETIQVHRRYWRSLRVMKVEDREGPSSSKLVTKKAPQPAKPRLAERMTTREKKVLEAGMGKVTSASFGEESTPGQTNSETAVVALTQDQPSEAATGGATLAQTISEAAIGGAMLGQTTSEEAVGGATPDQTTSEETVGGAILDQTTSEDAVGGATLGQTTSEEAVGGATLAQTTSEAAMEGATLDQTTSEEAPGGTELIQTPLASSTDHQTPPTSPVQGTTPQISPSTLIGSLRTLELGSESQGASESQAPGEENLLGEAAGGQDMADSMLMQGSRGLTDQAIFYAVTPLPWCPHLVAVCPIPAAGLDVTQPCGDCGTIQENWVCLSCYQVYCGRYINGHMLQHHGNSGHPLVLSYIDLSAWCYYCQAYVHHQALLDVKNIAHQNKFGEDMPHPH
Sequence of UniProt P50613 (whole entry, looked up): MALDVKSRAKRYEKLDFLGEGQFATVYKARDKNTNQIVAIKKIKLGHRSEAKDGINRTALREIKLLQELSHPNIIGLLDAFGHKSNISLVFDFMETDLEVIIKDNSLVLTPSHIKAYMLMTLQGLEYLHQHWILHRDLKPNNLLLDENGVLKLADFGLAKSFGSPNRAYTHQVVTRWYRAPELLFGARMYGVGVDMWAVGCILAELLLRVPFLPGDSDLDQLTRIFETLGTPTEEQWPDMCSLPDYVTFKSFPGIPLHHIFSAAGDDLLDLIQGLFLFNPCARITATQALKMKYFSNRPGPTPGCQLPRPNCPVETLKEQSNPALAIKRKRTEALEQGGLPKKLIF
Sequence of UniProt Q01105 (whole entry, unmodified, looked up): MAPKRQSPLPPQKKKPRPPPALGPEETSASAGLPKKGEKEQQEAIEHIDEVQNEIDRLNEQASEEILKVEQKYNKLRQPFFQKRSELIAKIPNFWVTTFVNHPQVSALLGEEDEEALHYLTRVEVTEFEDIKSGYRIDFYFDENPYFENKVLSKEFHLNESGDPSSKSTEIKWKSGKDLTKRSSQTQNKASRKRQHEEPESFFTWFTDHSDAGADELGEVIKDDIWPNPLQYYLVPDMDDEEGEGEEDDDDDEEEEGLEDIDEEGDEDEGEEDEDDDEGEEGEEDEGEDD
Sequence of UniProt Q9NZD1 (whole entry, looked up): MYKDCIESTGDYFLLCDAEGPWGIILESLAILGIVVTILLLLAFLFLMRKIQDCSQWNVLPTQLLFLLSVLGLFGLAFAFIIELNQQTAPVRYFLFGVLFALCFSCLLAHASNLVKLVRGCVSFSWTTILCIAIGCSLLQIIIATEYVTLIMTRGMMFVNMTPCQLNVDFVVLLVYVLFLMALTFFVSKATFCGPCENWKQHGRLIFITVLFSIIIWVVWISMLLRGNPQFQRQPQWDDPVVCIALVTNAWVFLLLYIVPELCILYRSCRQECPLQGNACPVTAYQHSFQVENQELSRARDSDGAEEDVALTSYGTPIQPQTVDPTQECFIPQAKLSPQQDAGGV

| Structure (SMILES) | target or system | test | test system | setting | scale | measurement | result |
| --- | --- | --- | --- | --- | --- | --- | --- |
| CC(=C/C(=O)O)/C=C/C=C(\C)C1C=C2C(C)(C)CCCC2(C)O1 (centres unmarked) | Rhodopsin (RHO, Homo sapiens, UniProt P08100, T17M) | ER retention, immunostaining co-localization, refers to: opsin with calnexin | COS-7 transfected T17M | 50.00 µM | – | Pearson correlation coefficient | 0.46 |
| CCCCCCCCCCCCC/C=C/[C@@H](O)[C@H](CO)NC(=O)CCCCCCCCCCCCCCCCCCCCCCCCC | Protein SET (SET, Homo sapiens, UniProt Q01105, K222D) | lipid binding, GFP pull-down LC-MS/MS | A549 overexpressing GFP-tagged protein | – | relative to: eluate plus flow-through | lipid fraction bound | 3.7% |
| N[C@H]1CCN(c2nccc(-c3cnn4ncccc34)n2)C1 | ABL1 (Homo sapiens, UniProt P00519, F317I) | KINOMEscan | – | 1 µM | relative to: control | remaining binding | 99% |
| CCN1CCC[C@H]1CNC(=O)c1c(O)c(Cl)cc(Cl)c1OC | G-protein coupled receptor family C group 5 member D (GPRC5D, Homo sapiens, UniProt Q9NZD1) | β-arrestin recruitment, TANGO luminescence, refers to: GPRC5D | – | concentration not given | relative to: basal luminescence | log2 fold change | 0.377 |
| O=C(O)CN1Cc2ccccc2C1=O | Protein deacetylase HDAC6, ZnF-UBD domain (HDAC6, Homo sapiens, UniProt Q9UBN7) | – | – | – | – | Kd | > 1000 µM |
| [O-][S+]1CCCCS1 (centres unmarked) | SOD1 (Homo sapiens, UniProt P00441, G94A) | LC-MS | brain homogenate | 100 µM, 1 h, 37 °C | – | SOD1 dimer fraction | 27% |
| Nc1ncnc2c1ncn2[C@@H]1O[C@H](COP(=O)(O)CP(=O)(O)OP(=O)(O)O)[C@@H](O)[C@H]1O | P2X purinoceptor 1 (P2RX1, Homo sapiens, UniProt P51575, R292A) | saturation binding | HEK293 | 1 nM | – | specific binding | 9 CCPM |
| Cn1cc(-c2ccc(-c3cncc(Cl)c3N3CCC4(CCNC4=O)CC3)cc2)cn1 | COLO 205 | gene expression, microarray, refers to: ABCC3 mRNA | – | concentration not given, 6 h | relative to: untreated cells | log2 fold change | 3.77 |
| CC(C)C[C@H](NC(=O)C[C@H](O)[C@H](CC(C)C)NC(=O)[C@H](Cc1c[nH]cn1)NC(=O)CNC(=O)[C@@H](NC(=O)[C@H](C)NC(=O)[C@H](Cc1c[nH]c2ccccc12)NC(=O)[C@H](CCC(N)=O)NC(=O)[C@@H](Cc1ccccc1)NC(=O)COCCOCCNC(=O)CCC(C(=O)O)N1CCN(CC(=O)O)CCN(CC(=O)O)CC1)C(C)C)C(N)=O (some centres unmarked) [lutetium-177 labelled] | – | – | BALB/c nu/nu mice, female, lumbar lymph node metastases | intravenous, 50 pmol, 1 h | – | tissue uptake | 13 ± 8 %ID/g |
| Nc1nc2c(ncn2[C@@H]2O[C@H](COP(=O)(O)O)[C@@H](O)[C@H]2O)c(=O)[nH]1 | GUK1 (Homo sapiens, UniProt Q16774, R148A) | enzyme activity, NADH-coupled | – | 500 µM | – | reaction rate | 0.275 s⁻¹ and 1.01 s⁻¹ and 0.624 s⁻¹ |
| CC1CCCN(C(=O)c2cc3ncccn3n2)C1 (centres unmarked) | Huntingtin (HTT, Homo sapiens, UniProt P42858) | binding, affinity selection mass spectrometry | – | – | relative to: other proteins in batch | fold enrichment | 1.04 |
| Cc1cc2ccccc2c2ccc3ccccc3c12 | Aryl hydrocarbon receptor (Danio rerio, UniProt Q9YGV3) | reporter gene, agonist, luciferase reporter | ZF-4 | 30000 µM | relative to: vehicle control | fold change | 5.22 |
| CCCCc1nc2c(s1)c(N)nc1ccccc12 | TLR8 (Homo sapiens, UniProt Q9NR97) | reporter gene, agonist, NF-κB reporter | HEK-Blue TLR8 | – | – | EC50 | inactive |
| COc1cc(-c2cc(C(C)=O)n3ccccc23)cc(OC)c1Cn1ccnc1 | EP300 (Homo sapiens, UniProt Q09472) | – | – | – | – | ΔTm | 1.4 °C |
| COC(=O)c1cccc(C(=O)c2c[nH]c3c4c(ccc23)CCC4)n1 | AHR (Homo sapiens, UniProt P35869) | reporter gene, agonist, XRE luciferase | HepG2 | – | relative to: ITE | Emax | 55 ± 3% |
| COc1cc(C#CC(=O)c2ccccc2)ccc1O | rhlR (Pseudomonas aeruginosa, UniProt P54292) | receptor binding | – | concentration not given, 1.5 h, together with: BHL at 1:1 ratio | relative to: control | binding | 52% |
| CC[C@@H]1[C@H](F)C(=O)N[C@@H]1COc1nccc2cc(C(N)=O)c(OC)cc12 | CDK7 (Homo sapiens, UniProt P50613) | ATP-site probe binding, ActivX profiling | THP-1 cell lysate | 0.01 mM, Lys2 site | – | inhibition | -3% |
| c1coc(-c2n[nH]cc2-c2ccnc3ccccc23)c1 | pH-response regulator protein palF/RIM8 (RIM8, Candida albicans, UniProt Q9UW13) | kinase binding, MIB/MS competition | Candida albicans lysate | 1 µM | relative to: DMSO, negative = stronger binding | log2 fold change | -0.33 |
| CC/C=C\C[C@H](O)/C=C/C=C\C=C\C=C\[C@@H](O)[C@@H](O)C/C=C\CCC(=O)O | FPR2 (Homo sapiens, UniProt P25090) | calcium mobilisation | HEK293 expressing FPR2 | concentration not given | – | intracellular calcium | no effect |
| O=C(O)CNc1ncccn1 | Ubiquitin carboxyl-terminal hydrolase 13, ZnF-UBD domain (USP13, Homo sapiens, UniProt Q92995) | – | – | – | – | Kd | 616 µM |

For quick reference, copied from above:
| Structure (SMILES) | target or system | test | test system | setting | scale | measurement | result |
| --- | --- | --- | --- | --- | --- | --- | --- |
| CC(C)C[C@H](NC(=O)C[C@H](O)[C@H](CC(C)C)NC(=O)[C@H](Cc1c[nH]cn1)NC(=O)CNC(=O)[C@@H](NC(=O)[C@H](C)NC(=O)[C@H](Cc1c[nH]c2ccccc12)NC(=O)[C@H](CCC(N)=O)NC(=O)[C@@H](Cc1ccccc1)NC(=O)COCCOCCNC(=O)CCC(C(=O)O)N1CCN(CC(=O)O)CCN(CC(=O)O)CC1)C(C)C)C(N)=O (some centres unmarked) [lutetium-177 labelled] | – | – | BALB/c nu/nu mice, female, lumbar lymph node metastases | intravenous, 50 pmol, 1 h | – | tissue uptake | 13 ± 8 %ID/g |
| CC1CCCN(C(=O)c2cc3ncccn3n2)C1 (centres unmarked) | Huntingtin (HTT, Homo sapiens, UniProt P42858) | binding, affinity selection mass spectrometry | – | – | relative to: other proteins in batch | fold enrichment | 1.04 |
| CC[C@@H]1[C@H](F)C(=O)N[C@@H]1COc1nccc2cc(C(N)=O)c(OC)cc12 | CDK7 (Homo sapiens, UniProt P50613) | ATP-site probe binding, ActivX profiling | THP-1 cell lysate | 0.01 mM, Lys2 site | – | inhibition | -3% |
